Measured values gathered from unrelated publications.
A part holds a random share of what one study measured.

Sample 1
Target: Ras GTPase-activating protein-binding protein 1, RRM domain (G3BP1, Homo sapiens, UniProt Q13283)
UniProt Q13283, sequence (whole entry, looked up): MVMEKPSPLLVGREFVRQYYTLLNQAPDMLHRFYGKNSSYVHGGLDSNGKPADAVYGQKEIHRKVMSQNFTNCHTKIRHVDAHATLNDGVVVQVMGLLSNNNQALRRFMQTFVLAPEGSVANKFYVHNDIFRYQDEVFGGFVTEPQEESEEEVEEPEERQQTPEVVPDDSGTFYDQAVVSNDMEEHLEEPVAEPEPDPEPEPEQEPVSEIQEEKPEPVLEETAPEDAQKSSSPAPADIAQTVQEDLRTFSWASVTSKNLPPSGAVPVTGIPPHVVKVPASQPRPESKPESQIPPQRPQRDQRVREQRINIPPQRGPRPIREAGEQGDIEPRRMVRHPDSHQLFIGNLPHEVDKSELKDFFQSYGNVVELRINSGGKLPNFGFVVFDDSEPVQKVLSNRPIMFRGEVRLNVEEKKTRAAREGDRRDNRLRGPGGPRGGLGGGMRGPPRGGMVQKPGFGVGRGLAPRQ
Method: RNA Bind-n-Seq
Molecule type: RNA
Matrix: in vitro
Tested at: 1 µM
Notes: whole 134-nt RNA, ends assumed
Added: 150 mM KCl
Reference: input library
Direction: higher = stronger binding
Quantity: log2 enrichment
All sequences stand within: GGGAGUUCUACAGUCCGACGAUC … UGGAAUUCUCGGGUGUCAAGG
UGGGAGGUGGAUUUUGUUUAUUUUUUUAGCUCAUUUCCAGGGGUGGGAAUGUUUUUUUAAUAUGUGUCAUGAAUAAAGUUGUUUUUGAAA: 2.45
AAGUCCUGUGCUACACAUCGUAUGUACCGAAUCGGUUUUUGGAAAGGUUUUUUUGGAAAGUAUUAUGUUACGCCGUUCGGAUCUGCACUU: -0.34
UCCUCAAGUCCUGUGCUACACAUCGUAUGUACCGAAUCGGAGGAGGAGGGGAAAGUAUUAUGUUACGCCGUUCGGAUCUGCACUUCCAGC: -0.302
CGCAGAAGUCGCGUGUCUAGGUGAGUCGCGGUGGGUCCUCGCUUGCAGUUCAGCGACCACGGUGGGUACCGUUUUUGCGAGGAUUGUUUG: -0.516
CUCAAGUCCUGUGCUACACAUCGUAUGUACCGAAUCGGGGAGGGGAGGGGAGGGAAAGUAUUAUGUUACGCCGUUCGGAUCUGCACUUCC: 0.894
CAAGUCCUGUGCUACACAUCGUAUGUACCGAAUCGGGGUUGGGGUUGGGGUUGGGAAAGUAUUAUGUUACGCCGUUCGGAUCUGCACUUC: 0.838
AGUCCUGUGCUACACAUCGUAUGUACCGAAUCAAACCCAAACCCCCCCAAAUUUAAAAAAGUAUUAUGUUACGCCGUUCGGAUCUGCACU: -0.118
AGUCCUGUGCUACACAUCGUAUGUACCGAAUCGGGUUUUUGGUUUUUGGUUUUUGGGAAAGUAUUAUGUUACGCCGUUCGGAUCUGCACU: -0.2
CUCAAGUCCUGUGCUACACAUCGUAUGUACCGAAUCGGAAAAAAAGGAGGAGGAAAGUAUUAUGUUACGCCGUUCGGAUCUGCACUUCCA: -0.147

Sample 2
Target: Histone acetyltransferase KAT6A, winged helix 2, GST fusion (KAT6A, Homo sapiens, UniProt Q92794, residues 85-181)
Method: protein binding microarray
Molecule type: double-stranded DNA, one strand shown
Matrix: in vitro
Tested at: not given
Notes: 8-mer, flanks averaged, mean of 2 arrays, mostly near background
Reference: not given
Direction: higher = stronger binding
Quantity: E-score
Residues (chain): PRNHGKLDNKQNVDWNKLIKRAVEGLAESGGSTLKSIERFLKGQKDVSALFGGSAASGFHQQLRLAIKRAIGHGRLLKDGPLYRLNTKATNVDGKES
CCAGGTGA: -0.0871
CAGCCGGA: 0.198
ATCCTAAT: 0.03
GGGCGGAA: 0.116
AATTGAGA: -0.0126
CGCTGAGC: -0.00602
ATATCACG: -0.136
AAACACTC: -0.0918
CCACCCGG: 0.19

Sample 3
Target: RING finger protein unkempt homolog, zinc fingers 1-6, SBP tag (UNK, Homo sapiens, UniProt Q9C0B0, residues 30-357)
UniProt Q9C0B0, sequence (30-357, looked up): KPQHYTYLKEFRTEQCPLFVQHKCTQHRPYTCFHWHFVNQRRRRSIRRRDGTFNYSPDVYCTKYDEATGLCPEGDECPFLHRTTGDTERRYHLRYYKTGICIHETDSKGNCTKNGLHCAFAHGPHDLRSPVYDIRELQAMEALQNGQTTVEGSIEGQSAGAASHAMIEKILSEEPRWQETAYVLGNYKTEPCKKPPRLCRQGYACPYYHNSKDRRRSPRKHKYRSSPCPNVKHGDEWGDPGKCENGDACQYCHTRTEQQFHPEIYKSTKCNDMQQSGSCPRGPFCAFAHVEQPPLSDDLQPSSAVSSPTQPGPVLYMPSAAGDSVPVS
Method: RNA Bind-n-Seq
Molecule type: RNA
Matrix: in vitro
Tested at: 100 nM
Notes: RNA with constant flanks, vertebrate orthologous sites, ends assumed
Reference: input RNA pool
Direction: higher = stronger binding
Quantity: bound/input enrichment
All sequences stand within: GGGAGUUCUACAGUCCGACGAUC … CAACAGAGGAUUGAGCAUCA
GUCUGACUGCUGGAUGAAGACUGUUCCAAGUUAUAACCAAACAAAUCGCUCCAUGGACUUUAGAAAUUAUAUGAUGAGAGACGAGAAUCUGGAGCCGCUGCCCAAAAACUGGGAAAUGGC: 0.622 ratio
UUGGGACCAACUCUCCAAAUAGGAAUAGUAAUAAAAAAAAUAAGCAAAAUGAUAUUUGUAUAGAAAAAACAGAAGUUAAAUCAUGUAAAGUAAAUGCUGCCAGUGUUCCAGGCCCUAAAG: 3.26 ratio
CACAUCUGGCGAUAUUUGGCCUGGCCUUUCUGCUUAUGAUAAUAGUCCCAGAUCACCCCAUAGUCCUUCACCUAUUGCUACACCACCUAGUCAGAGUUCAUCCUGCUCUGAUGCCCCCAU: 1.04 ratio
GAAUCAUGGCCACUAACAUCUCAGUGGGGCAAGAAGCCUGCUUGGCAUUUCGGUUGGUACGAGAGAGGUGAUCCCUCAUAAAUCUGUUCGUGUUUCUCCUCGUUCUCUCAUAGUCAUCUU: 0.341 ratio
GUUCUUAUUACACUCUUCUAGGGAAGAGAUGAACUGGGGAAAACUCUCCUUUUUAUAGAUUAAUUUGUCUCUAAAUUAUGACCAAAAAUAUUUUGCUAUUUCUUUAUAUAUGCACAUUUU: 0.569 ratio
CUACAAUAAUGAAAACCUACCAGAAAUUUUUUUUAUUUUUCAUUUUCCUUUAGGCAUACUUAAGCCUUUUUCUCCCCAGGCAGAUGAUUCUGAGUGUGCGAGUGUGUGUGCACAUGUUAC: 0.493 ratio
CAGCUGAUUCUCUCAUUGGGAGAGCCGCACACAUAGCUGUUCUUGACUCGGAAAUAUUUUUAGAGAAAUUCUUUCUGGUUGCUGCCCUCAAAUAUUUCCAAUAGGAUAAAAACAUUGUUA: 1.13 ratio

Further values, each from its own experiment
PhoQ, residues 284 288 289 292 302 303 GNNTDL
fold induction (PhoP, residues 12 14 15 18 19 NMSSL (Escherichia coli, UniProt P23836); Sort-seq, refers to: YFP reporter; E. coli; PhoQ-PhoP variant library, added: 10 µM Mg2+; reference: high Mg2+ state, higher = stronger signaling): 0.394

A few entries again (sample 1):
CGCAGAAGUCGCGUGUCUAGGUGAGUCGCGGUGGGUCCUCGCUUGCAGUUCAGCGACCACGGUGGGUACCGUUUUUGCGAGGAUUGUUUG: -0.516
CUCAAGUCCUGUGCUACACAUCGUAUGUACCGAAUCGGGGAGGGGAGGGGAGGGAAAGUAUUAUGUUACGCCGUUCGGAUCUGCACUUCC: 0.894
